Assay results of several laboratories.
Each line is one published result; not all experiments were run side by side.
UniProt Q15393, sequence (whole entry, looked up): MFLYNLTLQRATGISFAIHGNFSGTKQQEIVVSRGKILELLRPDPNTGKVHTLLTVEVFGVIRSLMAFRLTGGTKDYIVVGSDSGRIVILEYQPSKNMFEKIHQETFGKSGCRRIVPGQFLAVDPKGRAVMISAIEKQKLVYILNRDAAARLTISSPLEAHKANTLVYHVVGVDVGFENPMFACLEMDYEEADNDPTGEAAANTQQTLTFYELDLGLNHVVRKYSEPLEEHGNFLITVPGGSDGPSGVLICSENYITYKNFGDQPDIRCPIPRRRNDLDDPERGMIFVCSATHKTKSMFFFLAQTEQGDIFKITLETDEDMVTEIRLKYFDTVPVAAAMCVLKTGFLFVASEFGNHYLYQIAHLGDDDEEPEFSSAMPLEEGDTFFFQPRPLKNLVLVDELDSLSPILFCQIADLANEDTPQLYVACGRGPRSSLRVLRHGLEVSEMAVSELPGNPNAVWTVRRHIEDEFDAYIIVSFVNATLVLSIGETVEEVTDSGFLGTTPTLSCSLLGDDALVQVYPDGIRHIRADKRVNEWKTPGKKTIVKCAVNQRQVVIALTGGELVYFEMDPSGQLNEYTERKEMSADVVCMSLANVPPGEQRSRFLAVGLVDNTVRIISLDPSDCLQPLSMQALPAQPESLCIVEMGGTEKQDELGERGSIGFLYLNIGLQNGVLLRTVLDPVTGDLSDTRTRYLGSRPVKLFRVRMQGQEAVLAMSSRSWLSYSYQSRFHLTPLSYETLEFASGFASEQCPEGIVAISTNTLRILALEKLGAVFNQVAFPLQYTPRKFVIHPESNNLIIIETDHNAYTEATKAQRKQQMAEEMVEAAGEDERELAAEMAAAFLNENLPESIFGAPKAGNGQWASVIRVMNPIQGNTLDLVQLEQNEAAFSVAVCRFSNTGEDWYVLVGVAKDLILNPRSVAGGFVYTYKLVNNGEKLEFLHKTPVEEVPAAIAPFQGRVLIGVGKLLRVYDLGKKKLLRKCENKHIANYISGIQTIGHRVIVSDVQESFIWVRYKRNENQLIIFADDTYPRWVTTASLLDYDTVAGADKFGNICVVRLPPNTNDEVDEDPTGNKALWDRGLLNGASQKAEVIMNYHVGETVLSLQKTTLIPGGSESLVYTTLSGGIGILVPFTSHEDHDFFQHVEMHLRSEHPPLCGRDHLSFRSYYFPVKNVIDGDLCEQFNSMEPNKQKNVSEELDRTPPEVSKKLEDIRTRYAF
UniProt Q9Y570, sequence (whole entry, looked up): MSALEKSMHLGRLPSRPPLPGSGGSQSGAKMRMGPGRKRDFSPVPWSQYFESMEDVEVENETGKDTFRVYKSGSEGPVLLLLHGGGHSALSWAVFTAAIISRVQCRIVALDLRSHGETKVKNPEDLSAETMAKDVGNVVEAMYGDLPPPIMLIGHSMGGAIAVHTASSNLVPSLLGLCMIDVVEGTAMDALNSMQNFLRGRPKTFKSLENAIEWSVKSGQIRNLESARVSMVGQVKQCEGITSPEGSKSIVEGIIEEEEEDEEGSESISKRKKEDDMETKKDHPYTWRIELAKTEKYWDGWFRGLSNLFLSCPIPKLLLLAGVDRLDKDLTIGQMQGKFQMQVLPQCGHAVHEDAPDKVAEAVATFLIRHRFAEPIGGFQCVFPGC
UniProt P42336, sequence (whole entry, looked up): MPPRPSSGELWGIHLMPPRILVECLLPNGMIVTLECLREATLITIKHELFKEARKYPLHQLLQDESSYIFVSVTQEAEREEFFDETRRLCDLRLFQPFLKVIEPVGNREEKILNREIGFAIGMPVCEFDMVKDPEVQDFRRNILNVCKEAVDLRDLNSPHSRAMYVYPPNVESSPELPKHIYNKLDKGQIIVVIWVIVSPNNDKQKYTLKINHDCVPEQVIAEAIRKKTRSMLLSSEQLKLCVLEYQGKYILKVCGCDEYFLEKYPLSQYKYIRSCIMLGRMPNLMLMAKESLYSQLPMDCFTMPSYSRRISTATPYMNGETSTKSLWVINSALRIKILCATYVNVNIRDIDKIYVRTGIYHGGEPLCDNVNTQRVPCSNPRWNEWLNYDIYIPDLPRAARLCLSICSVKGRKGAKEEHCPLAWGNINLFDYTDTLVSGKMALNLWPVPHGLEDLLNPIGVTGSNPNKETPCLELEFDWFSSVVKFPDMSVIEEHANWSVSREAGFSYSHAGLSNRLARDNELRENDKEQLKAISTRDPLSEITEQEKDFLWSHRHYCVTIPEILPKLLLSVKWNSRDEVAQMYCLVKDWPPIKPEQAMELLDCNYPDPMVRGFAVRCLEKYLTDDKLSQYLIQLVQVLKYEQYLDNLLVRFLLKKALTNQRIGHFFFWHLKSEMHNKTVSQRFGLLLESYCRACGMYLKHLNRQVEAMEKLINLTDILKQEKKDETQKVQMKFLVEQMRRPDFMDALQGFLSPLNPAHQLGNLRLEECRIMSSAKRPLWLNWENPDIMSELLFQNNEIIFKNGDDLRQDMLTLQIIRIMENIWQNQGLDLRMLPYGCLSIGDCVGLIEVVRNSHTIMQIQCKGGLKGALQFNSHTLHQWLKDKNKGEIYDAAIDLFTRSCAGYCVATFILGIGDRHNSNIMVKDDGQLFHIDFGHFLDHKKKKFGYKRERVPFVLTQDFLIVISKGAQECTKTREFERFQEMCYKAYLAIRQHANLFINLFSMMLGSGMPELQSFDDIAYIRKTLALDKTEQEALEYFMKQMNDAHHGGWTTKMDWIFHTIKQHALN
UniProt P21728, sequence (whole entry, looked up): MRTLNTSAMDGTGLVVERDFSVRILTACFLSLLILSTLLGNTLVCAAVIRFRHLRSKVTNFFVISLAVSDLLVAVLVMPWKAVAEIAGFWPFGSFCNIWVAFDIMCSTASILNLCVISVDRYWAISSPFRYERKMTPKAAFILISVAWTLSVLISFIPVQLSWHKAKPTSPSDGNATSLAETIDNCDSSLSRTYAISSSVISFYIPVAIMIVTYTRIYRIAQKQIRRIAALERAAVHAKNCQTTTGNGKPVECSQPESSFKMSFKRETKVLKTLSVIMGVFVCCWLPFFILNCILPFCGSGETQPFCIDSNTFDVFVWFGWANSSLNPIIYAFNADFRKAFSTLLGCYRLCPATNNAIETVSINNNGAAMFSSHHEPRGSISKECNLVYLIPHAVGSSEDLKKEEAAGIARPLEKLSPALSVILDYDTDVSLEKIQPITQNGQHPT
UniProt P21709, sequence (whole entry, looked up): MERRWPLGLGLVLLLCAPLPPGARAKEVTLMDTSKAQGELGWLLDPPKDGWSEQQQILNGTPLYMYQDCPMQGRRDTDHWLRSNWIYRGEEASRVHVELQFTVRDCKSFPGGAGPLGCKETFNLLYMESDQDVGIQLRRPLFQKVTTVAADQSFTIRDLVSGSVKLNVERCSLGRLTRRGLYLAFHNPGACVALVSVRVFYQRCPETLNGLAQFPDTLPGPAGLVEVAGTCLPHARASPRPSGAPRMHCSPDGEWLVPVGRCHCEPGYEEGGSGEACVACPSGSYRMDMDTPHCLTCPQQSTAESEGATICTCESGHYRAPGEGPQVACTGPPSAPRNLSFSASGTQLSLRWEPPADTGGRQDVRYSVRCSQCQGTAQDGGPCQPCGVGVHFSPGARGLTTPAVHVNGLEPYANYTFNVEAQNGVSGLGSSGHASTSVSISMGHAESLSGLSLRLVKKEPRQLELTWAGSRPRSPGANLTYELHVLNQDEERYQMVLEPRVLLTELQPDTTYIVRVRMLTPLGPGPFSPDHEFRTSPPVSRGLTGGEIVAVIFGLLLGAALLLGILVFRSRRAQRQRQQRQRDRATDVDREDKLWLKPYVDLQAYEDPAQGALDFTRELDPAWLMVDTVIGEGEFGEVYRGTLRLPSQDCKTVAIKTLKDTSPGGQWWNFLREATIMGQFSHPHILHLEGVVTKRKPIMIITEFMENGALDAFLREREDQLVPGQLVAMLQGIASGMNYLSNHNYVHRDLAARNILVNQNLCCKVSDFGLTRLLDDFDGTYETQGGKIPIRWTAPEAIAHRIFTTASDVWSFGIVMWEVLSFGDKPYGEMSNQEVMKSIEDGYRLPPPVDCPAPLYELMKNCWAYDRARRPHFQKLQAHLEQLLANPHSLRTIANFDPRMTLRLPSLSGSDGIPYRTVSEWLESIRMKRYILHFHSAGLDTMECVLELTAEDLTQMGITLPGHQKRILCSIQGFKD
UniProt P21397, sequence (whole entry, looked up): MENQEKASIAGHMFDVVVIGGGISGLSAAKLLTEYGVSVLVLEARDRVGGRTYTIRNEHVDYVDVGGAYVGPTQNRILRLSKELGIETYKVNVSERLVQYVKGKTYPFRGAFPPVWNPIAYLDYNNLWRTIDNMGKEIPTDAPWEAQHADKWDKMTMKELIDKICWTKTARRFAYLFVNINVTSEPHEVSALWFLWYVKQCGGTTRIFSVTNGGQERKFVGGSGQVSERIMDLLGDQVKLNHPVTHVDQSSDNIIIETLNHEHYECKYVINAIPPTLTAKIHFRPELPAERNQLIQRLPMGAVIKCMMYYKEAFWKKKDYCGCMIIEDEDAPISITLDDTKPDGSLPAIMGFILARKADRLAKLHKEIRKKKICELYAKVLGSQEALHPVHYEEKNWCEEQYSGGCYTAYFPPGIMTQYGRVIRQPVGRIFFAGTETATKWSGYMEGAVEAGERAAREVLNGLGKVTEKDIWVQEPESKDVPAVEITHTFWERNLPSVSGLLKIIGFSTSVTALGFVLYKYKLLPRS
UniProt Q8TDS4, sequence (whole entry, looked up): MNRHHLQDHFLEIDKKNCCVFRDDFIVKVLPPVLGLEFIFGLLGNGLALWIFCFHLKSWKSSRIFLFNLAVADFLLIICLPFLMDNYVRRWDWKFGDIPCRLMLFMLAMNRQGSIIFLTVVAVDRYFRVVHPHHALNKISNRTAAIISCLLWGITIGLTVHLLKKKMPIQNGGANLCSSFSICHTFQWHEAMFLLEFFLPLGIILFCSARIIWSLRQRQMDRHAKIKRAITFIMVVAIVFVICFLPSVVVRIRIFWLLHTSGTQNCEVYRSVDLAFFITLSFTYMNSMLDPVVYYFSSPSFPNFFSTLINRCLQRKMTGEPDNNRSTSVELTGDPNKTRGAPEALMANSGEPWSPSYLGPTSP

SMILES | target | test | test system | setting | how to read | measurement | result
O=C(Nc1cccnn1)N1CCC(=Cc2cccc(Oc3ccc(C(F)(F)F)cn3)c2)CC1 | IP3 receptor, rat | binding | – | 10 µM, with: [3H]IP3 | – | inhibition | -1%
CN1CCN(c2cc(-c3ccncc3)c(-c3ccc4ccccc4c3)nn2)CC1 | DRD1 (Homo sapiens, UniProt P21728) | antagonist, FLIPR | – | 10 µM | – | inhibition | -2.1%
O=C(Nc1cnccc1Cl)N1CCN(Cc2ccc3c(c2)OC(F)(F)O3)CC1 | MAOA (Homo sapiens, UniProt P21397) | enzyme activity, inhibitor | – | 50 µM, human, with: kynuramine substrate | – | inhibition | 16%
O=C(c1ccc(Cl)cc1)N1CCN2C(=O)N(OC(=O)N3CCOc4ccccc43)C(=O)C2C1 (centres unmarked) | Protein phosphatase methylesterase 1 (Homo sapiens, UniProt Q9Y570) | MS-based ABPP | SW-620 conditioned medium | 10 µM, 1 h, 37 °C | relative to: compound over DMSO, lower = more inhibition | peptide ratio | 1
[2H]c1c([2H])c([C@]2([2H])CCCN2C(=O)C(C)(C)Oc2ccc3cn[nH]c3c2)c([2H])c([2H])c1C([2H])([2H])[2H] | EPHA1 (Homo sapiens, UniProt P21709) | KINOMEscan | – | 1 µM | relative to: DMSO control | remaining binding | 76%
C[C@H]1CN(c2n[nH]c3nc(N[C@H]4CC[C@H](NS(=O)(=O)CCC(F)(F)F)CC4)ncc23)CCO1 | Splicing factor 3B subunit 3 (Homo sapiens, UniProt Q15393) | Kinobeads competition, measured: SF3B3 | – | 0.16 µM, unit not given | relative to: vehicle | remaining binding | 1.13
COc1ccc(N2C(=O)N(c3c(C)cccc3Cl)Cc3cnc(Nc4ccc(C5CCN(C)CC5)cc4OC)nc32)nc1 | PIK3CA (Homo sapiens, UniProt P42336) | kinase activity, inhibitor | – | 0.5 µM, kinase PI3K-ALPHA | – | inhibition | 6.36%
Oc1ccc2c3c1O[C@H]1[C@@H](O)CC[C@@]4(O)[C@@H](C2)N(CC2CCC2)CC[C@]314 | HCAR2 (Homo sapiens, UniProt Q8TDS4) | β-arrestin recruitment, TANGO luminescence, measured: GPR109A | – | concentration not given | relative to: basal luminescence | log2 fold change | -0.171

For quick reference, copied from above:
SMILES | target | test | test system | setting | how to read | measurement | result
O=C(Nc1cnccc1Cl)N1CCN(Cc2ccc3c(c2)OC(F)(F)O3)CC1 | MAOA (Homo sapiens, UniProt P21397) | enzyme activity, inhibitor | – | 50 µM, human, with: kynuramine substrate | – | inhibition | 16%
